Measurements from different studies.
Numbered parts are unrelated; each lists some results of a single study.

Study 1
Target: RNA binding protein fox-1 homolog 2, RRM domain, GST-SBP tag (RBFOX2, Homo sapiens, UniProt O43251-10, residues 100-194)
Technique: RNA Bind-n-Seq
Molecule type: RNA
Medium: in vitro
Tested at: 365 nM
Setting: natural RNA segment, single round, ends assumed
Reference: no-protein control
Reading: higher = stronger binding
Shared flanks, not repeated: GGGAGUUCUACAGUCCGACGAUC … UGGAAUUCUCGGGUGCCAA
Residues (chain): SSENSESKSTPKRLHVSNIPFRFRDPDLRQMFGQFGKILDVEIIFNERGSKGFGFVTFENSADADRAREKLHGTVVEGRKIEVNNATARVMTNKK
Oligonucleotide | RBNS enrichment (R)
UGUUGAGCCCAUUCAGUAGCCGAGUCUUGUCACUCUGUGCCAGCCUCAGUCCUGUGUCCCUUUUUCUCUUGGGUUGAGCCUGUGGCUCAUCCCCUUUGUCCUUUUGGGAA | 0.198
GAAGCCUACUUUCCUGAGGCAGCAGCACUGCCACUGGAGCCUCCCGACAGGGCGUGCCUCUCCCACUGCAGCCCCUGUGGUGGUGGCUGCCUAAUUCAGUUCCAGCUCUC | 0.226
AGUUACCAACUUAAAAAUAAAAAAUCCGAACAACAUACUUGAAGAAUGUAAUACUCAAACUCUCAGUGCUUCCUUAUAAUUUCUAAUAGAAUUUUUUAUUAUUGUUAUUA | 0.693
CAGUGCUGGAGAGCGGAGGAUUGGGGGCGGGGAUUCAGACUUUCUGGGUUCACAUCUGUGUUUUGCAUGUCCAGCAGUGGGGCUCUGGACUCCCUAGCGCCCUGGUUGUG | 8
GGGCUGUUAAAUCGGAAAGGAUGUGGCUUCAGUGCCCUCAGGAACCCUUAGGCUCCAAAAAUUUGCCUGCCUUUGAGAGAACAACAAACAGGUCUUUUCUCUCUCCUUUA | 0.397
GUUCAUGAUUGUUGUGUUUUAAGACUUGUAUAUAAACUGCUUUUUCCAAACUCUGUAUAACUUUUAAAUGGCUGGAACUACUCGUAUAAGGACUAGACUGUAUUUUUGAC | 0.925

Study 2
Target: Phosphate system positive regulatory protein PHO4, full length, GST-tagged (PHO4, Saccharomyces cerevisiae, UniProt P07270, residues 1-312)
Technique: competition protein-binding microarray
Molecule type: double-stranded DNA, one strand shown
Medium: in vitro
Tested at: 2 µM
Setting: whole 60-bp probe, lowest competitor level
Added: Cbf1 competitor, 0.05 µM
Reading: higher = stronger binding
Shared flanks, not repeated: … GTCTTGATTCGCTTGACGCTGCTG
Residues (chain): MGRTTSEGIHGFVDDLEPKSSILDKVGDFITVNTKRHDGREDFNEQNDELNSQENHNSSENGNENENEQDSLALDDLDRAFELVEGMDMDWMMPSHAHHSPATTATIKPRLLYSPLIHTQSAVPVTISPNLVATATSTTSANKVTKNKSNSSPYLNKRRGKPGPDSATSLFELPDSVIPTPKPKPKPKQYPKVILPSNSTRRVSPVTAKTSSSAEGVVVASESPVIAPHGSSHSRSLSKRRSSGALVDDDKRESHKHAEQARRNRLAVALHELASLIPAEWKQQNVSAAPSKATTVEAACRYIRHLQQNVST
Oligonucleotide | fluorescence intensity
GCTTGCCGCGAACCTCTCGTGCGATGCCAAAGTGGT | 7170 a.u.
CATACCCAACCTTGTCACGTAACTTAAGATATTTGT | 4780 a.u.
CTAACGAAGGTTTGAACAGTGGGTGACAAGCCAAGT | 4080 a.u.
CGGGGTTAAGTTTGTGATGTGGGTGGCTTGCAGCAG | 4850 a.u.
CTCTACCAGCACCATCACCTGTGAAATATTGACCAG | 4990 a.u.

Study 3
Target: Interferon regulatory factor 7, full length, phosphomimetic (IRF7, Homo sapiens, UniProt Q92985, residues 1-503, S471D/S472D/S475D/S476D/S477D/S483D/S484D/S487D)
UniProt Q92985, sequence (whole entry, unmodified, looked up): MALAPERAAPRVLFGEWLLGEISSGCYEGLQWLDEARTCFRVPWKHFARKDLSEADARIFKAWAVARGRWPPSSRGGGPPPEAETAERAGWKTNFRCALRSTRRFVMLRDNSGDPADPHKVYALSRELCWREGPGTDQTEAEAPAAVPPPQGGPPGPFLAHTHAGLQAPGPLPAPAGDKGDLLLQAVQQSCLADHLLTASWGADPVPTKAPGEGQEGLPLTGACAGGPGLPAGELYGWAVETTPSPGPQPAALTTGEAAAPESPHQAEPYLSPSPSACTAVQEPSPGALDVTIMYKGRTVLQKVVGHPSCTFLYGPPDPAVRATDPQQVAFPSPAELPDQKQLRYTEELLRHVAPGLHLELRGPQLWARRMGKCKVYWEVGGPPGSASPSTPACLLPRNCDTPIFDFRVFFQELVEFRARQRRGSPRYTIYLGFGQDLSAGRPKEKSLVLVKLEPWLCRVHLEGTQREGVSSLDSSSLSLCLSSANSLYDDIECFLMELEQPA
Technique: protein-binding microarray
Molecule type: double-stranded DNA, one strand shown
Medium: in vitro
Tested at: 2200 nM top
Setting: 60-bp whole probe
Added: salmon DNA 0.4 mg/ml
Reference: random background probes
Reading: higher = stronger binding
Shared flanks, not repeated: GCCTAGCAC … GTCTTGATTCGCTTGACGCTGCTG
Oligonucleotide | fitted relative affinity [z-score]
TTAGGTATTGACTTTCGGTTAGTGCTA | 5.95
GGGCTTTCCCAGCCTGGGGCTGTGCTA | -1.35
TGTTTCCTCTTTCTTTGCTTGTGCTAG | 4.36
AAGGAAATCGGTGATCAGTCTGTGCTA | -0.433
GACGGACTGGTTTTCGGGACGTGCTAG | 1.66

Single results of other studies
Substance | target | assay | test system | conditions | scale | quantity | value
PhoQ, residues 284 288 289 292 302 303 SVHLDV | PhoP, residues 12 14 15 18 19 QYFSL (Escherichia coli, UniProt P23836) | Sort-seq, item: YFP reporter | E. coli | PhoQ-PhoP variant library, added: 10 µM Mg2+ | reference: high Mg2+ state, higher = stronger signaling | fold induction | 2.8
